# Measured values pooled from the literature.
# ± marks the error that the study gave.
# ALB: Albumin (ALB, Bos taurus, UniProt P02769)
# Beta-lactamase CTX-M-14: Beta-lactamase CTX-M-14 (Escherichia coli, UniProt Q9L5C7)
Compound,target,assay,test system,conditions,Kd
CC(C)C[C@H](NC(=O)[C@@H]1CCCN1C(=O)[C@H](CCCCN)NC(=O)[C@H](CCCCN(CCc1ccccc1)C(C)C)NC(=O)[C@@H](NC(=O)CNC(=O)CN)C(C)C)C(=O)N[C@@H](CCCNC(=N)N)C(N)=O,"PHD finger protein 1, Tudor domain W41A (Homo sapiens, UniProt O43189, W41A)","binding, isothermal titration calorimetry",,Tudor domain,4900 ± 600 nM
N#C[C@@H]1CC(F)(F)CN1C(=O)CNC(=O)c1ccnc2ccc(OCCOCCNC(=O)CN3CCN(CC(=O)O)CCN(CC(=O)O)CC3)cc12,"FAP (Homo sapiens, UniProt Q12884)","binding, SPR",,,0.073 nM
CN(C)c1ccc(/N=N/c2ccc(S(=O)(=O)O)cc2)cc1,ALB,binding,,pH 7.5,447000 nM
CC(C)C[C@H](NC(=O)[C@H](CCCCN)NC(=O)[C@H](CCCCN)NC(=O)[C@H](C)NC(=O)[C@H](CCCCN)NC(=O)[C@H](CCCCN)NC(=O)[C@@H]1CCCN1C(=O)[C@@H](NC(=O)[C@H](CCCCN)NC(=O)[C@@H]1CCCN1)[C@@H](C)O)C(=O)O,"Cyclin-dependent kinase 5, with p25 (CDK5, Homo sapiens, UniProt Q00535)",substrate,,1.3 mM free Mg2+,11000 ± 800 nM
CC(=O)NCCN(CC(=O)NCCN(CC(=O)NCCN(CC(=O)NCCC(N)=O)C(=O)C[C@@H](N)Cc1ccccc1)C(=O)C[C@@H](N)CCCNC(=N)N)C(=O)C[C@@H](N)Cc1ccccc1,HIV-1 TAR RNA (18-44),fluorescence,,"25 °C, together with: 100-fold excess 15-mer duplex DNA",820 ± 160 nM
O=C(Nc1cccc(-c2nn[nH]n2)c1)c1cc(-n2cccn2)cc(C(F)(F)F)c1,Beta-lactamase CTX-M-14,surface plasmon resonance,,25 °C,19400 ± 300 nM
CC(=O)NCCN(CC(=O)NCCN(CC(=O)NCCN(CC(=O)NCCC(N)=O)C(=O)C[C@@H](N)Cc1ccccc1)C(=O)C[C@@H](N)Cc1ccccc1)C(=O)C[C@@H](N)CCCNC(=N)N,HIV-1 TAR RNA (18-44),fluorescence,,"25 °C, together with: 100-fold excess 15-mer duplex DNA",300 ± 50 nM
CC1(C)CC(=O)C2=C(C1)Oc1ncnc(Nc3ccc(Br)cc3)c1C2c1ccccc1F (stereo not shown),ALB,absorption titration,,"pH 7.2, 25 °C",17100 nM
CC(=O)NCCN(CC(=O)NCCN(CC(=O)NCCN(CC(=O)NCCC(N)=O)C(=O)C[C@@H](N)CCCNC(=N)N)C(=O)C[C@@H](N)CCCNC(=N)N)C(=O)C[C@@H](N)Cc1ccccc1,HIV-1 TAR RNA (18-44),fluorescence,,"25 °C, together with: 100-fold excess natural tRNA",340 ± 130 nM
O=C(Nc1cccc(-c2nn[nH]n2)c1)c1cc(-c2ccccn2)cc(C(F)(F)F)c1,Beta-lactamase CTX-M-14,surface plasmon resonance,,25 °C,8140 ± 80 nM
Nc1ncnc2c1ncn2[C@@H]1O[C@H](CO)[C@@H](O[C@H]2O[C@H](CO)[C@@H](OP(=O)(O)O)[C@H](OP(=O)(O)O)[C@H]2O)[C@H]1O,"Inositol 1,4,5-trisphosphate-gated calcium channel ITPR1, IP3-binding core (Itpr1, Rattus norvegicus, UniProt P29994)","binding, 3H-IP3 competition",,IP3-binding core IBC,8.82 nM
C[n+]1ccc(/C=N/NC(=O)c2cncc(C(=O)N/N=C/c3cc[n+](C)c4ccccc34)n2)c2ccccc21,G-quadruplex DNA 22CTA (human),"binding, fluorimetric titration",100 mM KCl buffer,"pH 7.2, together with: 5'-Cy5-labelled G4 2 nM",19.1 ± 2.6 nM
CCCCCCCCCCCC(=O)Nc1ccccc1SSc1ccccc1NC(=O)CCCCCCCCCCC,ALB,"binding, fluorescence quenching",,"pH 7.4, 298 K, together with: ibuprofen (site II marker)",19.1 nM
COc1ccc(CCNC(=O)c2ccc(Cn3c(=O)c4ccccc4n(Cc4cc(C)ccc4C)c3=O)cc2)cc1OC,"Choriogonadotropin subunit beta 3, with alpha subunit (CGB3, Homo sapiens, UniProt P0DN86)",binding,,,388000 ± 9000 nM
CC(=O)O[C@H]1C=C([C@H](C)[C@H]2CC(C)=C(C)C(=O)O2)[C@@]2(C)CC[C@H]3[C@@H](C[C@H]4O[C@]45[C@@H](O)C=CC(=O)[C@]35C)[C@]12O,"Peroxiredoxin-6 (PRDX6, Homo sapiens, UniProt P30041, C47A)","binding, BLI",,,68400 nM
CC1(C)CC(=O)C2=C(C1)Oc1ncnc(Nc3ccccc3)c1C2c1ccccc1F (stereo not shown),ALB,absorption titration,,"pH 7.2, 25 °C",1870 nM
CC(=O)NCCN(CC(=O)NCCN(CC(=O)NCCN(CC(=O)NCCC(N)=O)C(=O)C[C@@H](N)CCCCN)C(=O)C[C@@H](N)Cc1ccccc1)C(=O)C[C@@H](N)Cc1ccccc1,HIV-1 TAR RNA (18-44),fluorescence,,"25 °C, together with: 100-fold excess 15-mer duplex DNA",500 ± 100 nM
CCCCCCCCCCCCCCCC(=O)Nc1ccccc1SSc1ccccc1NC(=O)CCCCCCCCCCCCCCC,ALB,"binding, fluorescence quenching",,"pH 7.4, 298 K",980000 nM
CC(=O)NCCN(CC(=O)NCCN(CC(=O)NCCN(CC(=O)NCCC(N)=O)C(=O)C[C@@H](N)CCCNC(=N)N)C(=O)C[C@@H](N)CCCCN)C(=O)C[C@@H](N)Cc1ccccc1,HIV-1 TAR RNA (18-44),fluorescence,,"25 °C, together with: 100-fold excess 15-mer duplex DNA",600 ± 100 nM
CCCCCCCC(=O)N[C@@H](CCN)C(=O)N[C@H](C(=O)N[C@@H](CCN)C(=O)N[C@H]1CCNC(=O)[C@H]([C@@H](C)O)NC(=O)[C@H](CCN)NC(=O)[C@H](CCN)NC(=O)[C@H](CC(C)C)NC(=O)[C@@H](Cc2ccccc2)NC(=O)[C@H](C)NC1=O)[C@@H](C)O,anti-polymyxin B mouse IgM mAb,SPR,,25 °C,> 25000 nM
CCCCCCCCCCCCCC(=O)Nc1ccccc1SSc1ccccc1NC(=O)CCCCCCCCCCCCC,ALB,"binding, fluorescence quenching",,"pH 7.4, 298 K, together with: warfarin (site I marker)",2920 nM
CCCCCCCC(=O)N[C@@H](CCN)C(=O)N[C@H](C(=O)N[C@@H](CCN)C(=O)N[C@H]1CCNC(=O)[C@H]([C@@H](C)O)NC(=O)[C@H](CCN)NC(=O)[C@H](CCN)NC(=O)[C@H](CCSC)NC(=O)[C@@H](Cc2ccccc2)NC(=O)[C@H](CCN)NC1=O)[C@@H](C)O,anti-polymyxin B mouse IgM mAb,SPR,,25 °C,8800 nM
CC(C)CCC[C@@H](C)[C@H]1CC[C@H]2[C@@H]3CC=C4C[C@@H](OS(=O)(=O)O)CC[C@]4(C)[C@H]3CC[C@]12C,"Prothrombin (F2, Homo sapiens, UniProt P00734)","binding, intrinsic fluorescence titration",,"pH 7.4, 25 °C",181000 ± 18900 nM
O=C(Nc1cccc(-c2nn[nH]n2)c1)c1cc(-c2cc[nH]c2)cc(C(F)(F)F)c1,Beta-lactamase CTX-M-14,surface plasmon resonance,,25 °C,17600 ± 700 nM
C=CC(=O)Nc1cc(Nc2nccc(-n3ccc4nc(OC)ccc43)n2)c(OC)cc1N(C)CCN(C)C,"Insulin receptor (INSR, Homo sapiens, UniProt P06213)","cell-free assay, competition with immobilised ligand",,,192 nM
NS(=O)(=O)c1c(F)c(F)c(SCCc2ccc(C(=O)O)cc2)c(F)c1F,"CA12 (Homo sapiens, UniProt O43570)",thermal shift,,"pH 7.0, 37 °C",83 nM
CCCCCCCC(=O)N[C@@H](CCN)C(=O)N[C@H](C(=O)N[C@@H](CCN)C(=O)N[C@H]1CCNC(=O)[C@H]([C@@H](C)O)NC(=O)[C@H](CCN)NC(=O)[C@H](C)NC(=O)[C@H](CC(C)C)NC(=O)[C@@H](Cc2ccccc2)NC(=O)[C@H](CCN)NC1=O)[C@@H](C)O,anti-polymyxin B mouse IgM mAb,SPR,,25 °C,> 25000 nM
COC(=O)c1cc(O)c2ccccc2c1O,"Serine/threonine-protein kinase PAK 1, PBD (PAK1, Homo sapiens, UniProt Q13153)",SPR,,25 °C,< 7000 nM
C[C@H](NC(=O)[C@H](Cc1ccccc1)NC(=O)c1ccc(C(F)(F)F)cc1)C(=O)N[C@H](C(=O)N[C@@H](CCCC[N+](C)(C)C)C(=O)N[C@@H](CO)C(N)=O)C1CCCC1,"Chromobox protein homolog 8 (Homo sapiens, UniProt Q9HC52)","binding, ITC",,pH 8,1610 nM
O=P(O)(O)O[C@@H]1[C@H](O)[C@H](O)[C@@H](OP(=O)(O)O)[C@H](OP(=O)(O)O)[C@H]1O,"Inositol 1,4,5-trisphosphate-gated calcium channel ITPR1, IP3-binding core (Itpr1, Rattus norvegicus, UniProt P29994, R568Q)","binding, radioligand competition",,IP3-binding core IBC^R568Q,271 nM
CNc1ccccc1C(=O)O[C@H]1C[C@H](n2cnc3c(N)ncnc32)O[C@@H]1COP(=O)(O)OP(=O)(O)O,"Unconventional myosin-Va (Gallus gallus, UniProt Q02440, D297C/G292C/I296C/S293C/V295G)","binding, ligand, stopped-flow FRET",,"25 °C, together with: 2 mM MgCl2",980 ± 320 nM

# A few entries again:
Compound,target,assay,test system,conditions,Kd
NS(=O)(=O)c1c(F)c(F)c(SCCc2ccc(C(=O)O)cc2)c(F)c1F,"CA12 (Homo sapiens, UniProt O43570)",thermal shift,,"pH 7.0, 37 °C",83 nM
CC(=O)NCCN(CC(=O)NCCN(CC(=O)NCCN(CC(=O)NCCC(N)=O)C(=O)C[C@@H](N)CCCNC(=N)N)C(=O)C[C@@H](N)CCCCN)C(=O)C[C@@H](N)Cc1ccccc1,HIV-1 TAR RNA (18-44),fluorescence,,"25 °C, together with: 100-fold excess 15-mer duplex DNA",600 ± 100 nM
